Measured values gathered from unrelated publications.
Lines come from different studies, so protocols differ. “And” joins repeats or separate records; there may be more than shown. ± gives the spread as reported.
HLA class I histocompatibility antigen, A alpha chain allele A*24:02: HLA class I histocompatibility antigen, A alpha chain, allele A*24:02 (Homo sapiens, UniProt P04439)
Sequence of UniProt P41146 (whole entry, looked up): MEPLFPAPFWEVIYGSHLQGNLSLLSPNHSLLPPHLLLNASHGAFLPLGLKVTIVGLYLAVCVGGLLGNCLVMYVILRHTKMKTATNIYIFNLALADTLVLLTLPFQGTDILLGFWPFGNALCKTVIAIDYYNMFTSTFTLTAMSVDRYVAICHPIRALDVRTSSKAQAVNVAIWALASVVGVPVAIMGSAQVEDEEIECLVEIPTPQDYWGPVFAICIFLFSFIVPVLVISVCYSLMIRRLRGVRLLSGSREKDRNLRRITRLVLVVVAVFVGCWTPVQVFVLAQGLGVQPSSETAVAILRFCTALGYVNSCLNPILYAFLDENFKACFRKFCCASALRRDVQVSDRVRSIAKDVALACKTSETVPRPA
Sequence of UniProt P29320 (whole entry, looked up): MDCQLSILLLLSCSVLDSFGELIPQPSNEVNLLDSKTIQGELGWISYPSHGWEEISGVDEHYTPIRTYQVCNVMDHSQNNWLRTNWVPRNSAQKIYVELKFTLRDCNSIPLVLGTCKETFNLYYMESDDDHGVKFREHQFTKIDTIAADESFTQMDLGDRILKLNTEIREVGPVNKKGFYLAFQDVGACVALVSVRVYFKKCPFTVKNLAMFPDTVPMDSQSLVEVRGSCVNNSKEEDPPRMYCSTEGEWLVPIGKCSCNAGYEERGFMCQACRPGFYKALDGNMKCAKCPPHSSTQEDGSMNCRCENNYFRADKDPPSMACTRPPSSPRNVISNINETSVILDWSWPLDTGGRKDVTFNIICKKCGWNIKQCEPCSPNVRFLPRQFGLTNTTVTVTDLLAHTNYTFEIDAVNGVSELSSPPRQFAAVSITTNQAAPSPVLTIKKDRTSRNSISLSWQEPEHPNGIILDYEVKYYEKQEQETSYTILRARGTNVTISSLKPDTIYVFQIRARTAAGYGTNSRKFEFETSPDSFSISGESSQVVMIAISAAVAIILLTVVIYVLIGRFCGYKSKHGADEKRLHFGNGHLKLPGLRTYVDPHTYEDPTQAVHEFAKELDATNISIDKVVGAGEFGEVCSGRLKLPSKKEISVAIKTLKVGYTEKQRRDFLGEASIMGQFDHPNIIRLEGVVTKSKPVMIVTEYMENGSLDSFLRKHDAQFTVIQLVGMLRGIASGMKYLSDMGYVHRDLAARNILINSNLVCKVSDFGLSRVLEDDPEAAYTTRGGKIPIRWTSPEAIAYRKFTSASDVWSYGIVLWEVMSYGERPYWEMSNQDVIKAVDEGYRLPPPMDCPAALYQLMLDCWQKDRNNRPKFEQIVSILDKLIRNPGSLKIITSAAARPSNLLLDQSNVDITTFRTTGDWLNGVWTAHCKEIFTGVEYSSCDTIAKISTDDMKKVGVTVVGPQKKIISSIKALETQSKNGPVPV

SMILES | target or system | assay | test system | setting | scale | endpoint | value
CO[C@H]1C[C@@H]2CC[C@@H](C)[C@@](O)(O2)C(=O)C(=O)N2CCCC[C@H]2C(=O)O[C@H]([C@H](C)C[C@@H]2CC[C@@H](OC(=O)NCCOCCOCCOCCOCCOCCOCCOCCOCCC(=O)N3CCc4cc(Cn5nc(-c6ccc7oc(N)nc7c6)c6c(N)ncnc65)ccc4C3)[C@H](OC)C2)C[C@@H](O)[C@H](C)/C=C(\C)[C@@H](O)[C@@H](OC)C(=O)[C@H](C)C[C@H](C)/C=C/C=C/C=C/1C |  | phase 1 dose escalation, item: nausea | advanced solid tumour patients | intravenous, 16 mg weekly, any grade |  | TRAE incidence | 75%
COc1cc2c(Oc3ccc4[nH]c(C)cc4c3F)ccnc2cc1OCC1(N)CC1 |  |  | paediatric refractory sarcoma patients | 10 mg |  | grade 1-2 QTc prolongation | 0%
CC(C)C[C@H](NC(=O)[C@@H](NC(=O)[C@@H](NC(=O)[C@H](CC(=O)O)NC(=O)[C@H](Cc1ccccc1)NC(=O)[C@H](CCC(N)=O)NC(=O)[C@@H](N)CCCCN)C(C)C)[C@@H](C)O)C(=O)N[C@@H](Cc1ccc(O)cc1)C(=O)N[C@@H](Cc1ccccc1)C(=O)O | HLA class I histocompatibility antigen, A alpha chain allele A*24:02 | binding |  |  |  | IC50 | 0.79 µM
C[C@H]1CN(c2n[nH]c3nc(N[C@H]4CC[C@H](NS(=O)(=O)CCC(F)(F)F)CC4)ncc23)CCO1 | EPHA3 (Homo sapiens, UniProt P29320) | inhibitor, Kinobeads competition profiling |  | 20 µM | reference: vehicle | relative abundance | 1.12
CCN1CCN(Cc2ccc(Nc3ncc(F)c(-c4cc(F)c5nc6n(c5c4)[C@H](C)CCC6)n3)nc2)CC1 |  |  | advanced solid tumour patients | dose not given, Phase Ia monotherapy |  | Proteinuria incidence, any grade | 37.5%
[Cl][212Pb][Cl] |  |  | athymic mice, C4-2 xenograft, liver | intravenous, 2 h, 212Pb-labelled |  | tissue uptake | 8.54 ± 1.54 %ID/g
Cn1c(-c2ccc(C(N)=O)cc2F)nnc1C(C)(C)Oc1c(F)cc(Cl)cc1F |  |  | human | oral, dose not given, single ascending dose all doses |  | subjects with musculoskeletal TEAE | 5.6%
COc1cccc(Oc2ccccc2NC(=O)CNC(=O)c2cccc3ccccc23)c1 |  |  | esterase-deficient SCID mice, male | oral, 40 mg/kg/day, 14 days, toxicity study |  | sodium/potassium ratio | 18 and 22
C[C@@H](NC(=O)N1C(=O)[C@H](Cc2ccnc(N)c2)[C@H]1C(=O)O)C1CCCCC1 |  |  | healthy adult Chinese volunteers | continuous intravenous infusion, 1.5 mg/kg/h, 5-day infusion, CTCAE 5.0 grading |  | incidence of elevated blood uric acid | 0%
O=C(Nc1cccnn1)N1CCC(=Cc2cccc(Oc3ccc(C(F)(F)F)cn3)c2)CC1 | Nociceptin receptor (OPRL1, Homo sapiens, UniProt P41146) | radioligand binding, inhibitor |  | 10 µM, human, with: [3H]nociceptin |  | inhibition | 2%
C[C@]1(CO)Cc2ncn(-c3ccc(C#N)c(Cl)c3)c2C(=O)O1 |  |  | human, plasma | 10 mg once daily, fasted |  | Cmax at steady state | 435 nM
N[C@@H]1c2ccccc2OC12CCN(c1cnc3c(N4CCCc5ncccc54)n[nH]c3n1)CC2 |  |  | advanced metastatic solid tumour patients | oral, 10 mg once daily |  | TEAE leading to interruption | 0%
CC[C@H](C)[C@H](NC(=O)[C@H](CCCNC(=N)N)NC(=O)[C@H](CC(N)=O)NC(=O)[C@H](Cc1ccccc1)NC(=O)[C@@H](NC(=O)[C@@H](N)Cc1ccc(O)cc1)[C@@H](C)O)C(=O)N[C@@H](Cc1c[nH]cn1)C(=O)N[C@@H](CCC(=O)O)C(=O)N[C@@H](Cc1ccccc1)C(=O)O | HLA class I histocompatibility antigen, A alpha chain allele A*24:02 | binding |  |  |  | IC50 | 2.1 µM
Brc1ccc(Oc2cc(Br)c(Br)cc2Br)c(Br)c1 |  | ultrafiltration | cow milk whey | 200 nM nominal in whole milk |  | dose fraction in permeate | 11%
O=C(O)CCCOc1ccc(F)cc1-c1cc(-c2ccccc2C(F)(F)F)n(-c2ccccc2)n1 |  |  | female Crl:CD(SD) rats, uterus | intravenous, 25 µg/kg, 1 d |  | relative organ weight | 0.22 ± 0.05 g%
O=C(Nc1ccccc1)C1CCN(C(=O)Oc2cccnc2)CC1 |  | Bond-Lader VAS | healthy women | 60 mg | reference: pre-dose baseline, direction not given | change in Alert-Drowsy score | 2.2
CCc1ccc(CC/C=C/c2ccc3c(c2)C(=O)CC3)cc1 |  |  | Sprague-Dawley rat, female, blood | oral, 120 mg/kg/day, 14 days |  | prothrombin time | 12.7 s

Excerpt of the above:
SMILES | target or system | assay | test system | setting | scale | endpoint | value
O=C(Nc1ccccc1)C1CCN(C(=O)Oc2cccnc2)CC1 |  | Bond-Lader VAS | healthy women | 60 mg | reference: pre-dose baseline, direction not given | change in Alert-Drowsy score | 2.2
N[C@@H]1c2ccccc2OC12CCN(c1cnc3c(N4CCCc5ncccc54)n[nH]c3n1)CC2 |  |  | advanced metastatic solid tumour patients | oral, 10 mg once daily |  | TEAE leading to interruption | 0%
